{"data": "Experimental data gathered from unrelated publications", "4'-phosphopantetheinyl transferase PptT": "4'-phosphopantetheinyl transferase PptT (Mycobacterium tuberculosis, UniProt O33336)", "HLA class I histocompatibility antigen, A alpha chain": "HLA class I histocompatibility antigen, A alpha chain (Homo sapiens, UniProt P04439)", "note": "Protocols differ between the studies behind these lines. Several values in a cell are separate wells, animals, samples, runs or records.", "UniProt O33336, sequence (whole entry, looked up)": "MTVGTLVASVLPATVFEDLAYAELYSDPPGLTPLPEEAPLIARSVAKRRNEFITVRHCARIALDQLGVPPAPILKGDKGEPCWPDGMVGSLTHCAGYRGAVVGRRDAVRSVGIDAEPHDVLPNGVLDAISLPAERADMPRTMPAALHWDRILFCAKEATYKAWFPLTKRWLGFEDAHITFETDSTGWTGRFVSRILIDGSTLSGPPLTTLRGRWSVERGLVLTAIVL", "UniProt P33535, sequence (whole entry, looked up)": "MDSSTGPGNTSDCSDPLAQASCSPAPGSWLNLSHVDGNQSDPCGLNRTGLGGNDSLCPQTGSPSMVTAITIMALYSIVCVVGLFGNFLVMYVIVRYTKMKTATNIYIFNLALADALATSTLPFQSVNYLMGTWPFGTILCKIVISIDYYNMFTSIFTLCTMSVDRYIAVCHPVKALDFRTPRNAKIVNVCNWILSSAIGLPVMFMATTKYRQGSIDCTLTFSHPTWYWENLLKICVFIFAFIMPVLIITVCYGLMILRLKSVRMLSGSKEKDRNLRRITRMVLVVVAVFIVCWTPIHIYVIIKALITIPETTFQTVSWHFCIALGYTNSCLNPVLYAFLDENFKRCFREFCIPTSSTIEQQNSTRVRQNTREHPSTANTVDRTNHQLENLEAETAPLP", "UniProt Q15561, sequence (whole entry, looked up)": "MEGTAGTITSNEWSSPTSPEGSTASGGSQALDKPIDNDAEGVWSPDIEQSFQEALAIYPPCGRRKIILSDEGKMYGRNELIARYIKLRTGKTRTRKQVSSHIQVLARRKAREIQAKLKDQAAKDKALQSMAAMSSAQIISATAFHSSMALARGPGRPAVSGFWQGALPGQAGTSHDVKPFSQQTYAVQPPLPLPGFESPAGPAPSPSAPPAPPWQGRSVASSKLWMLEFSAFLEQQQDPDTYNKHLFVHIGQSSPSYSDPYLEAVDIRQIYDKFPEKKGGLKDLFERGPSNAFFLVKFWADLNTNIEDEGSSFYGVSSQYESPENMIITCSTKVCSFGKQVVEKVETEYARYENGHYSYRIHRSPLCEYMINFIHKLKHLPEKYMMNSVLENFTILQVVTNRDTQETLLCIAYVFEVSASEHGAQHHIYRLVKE", "UniProt Q9UJS0, sequence (whole entry, looked up)": "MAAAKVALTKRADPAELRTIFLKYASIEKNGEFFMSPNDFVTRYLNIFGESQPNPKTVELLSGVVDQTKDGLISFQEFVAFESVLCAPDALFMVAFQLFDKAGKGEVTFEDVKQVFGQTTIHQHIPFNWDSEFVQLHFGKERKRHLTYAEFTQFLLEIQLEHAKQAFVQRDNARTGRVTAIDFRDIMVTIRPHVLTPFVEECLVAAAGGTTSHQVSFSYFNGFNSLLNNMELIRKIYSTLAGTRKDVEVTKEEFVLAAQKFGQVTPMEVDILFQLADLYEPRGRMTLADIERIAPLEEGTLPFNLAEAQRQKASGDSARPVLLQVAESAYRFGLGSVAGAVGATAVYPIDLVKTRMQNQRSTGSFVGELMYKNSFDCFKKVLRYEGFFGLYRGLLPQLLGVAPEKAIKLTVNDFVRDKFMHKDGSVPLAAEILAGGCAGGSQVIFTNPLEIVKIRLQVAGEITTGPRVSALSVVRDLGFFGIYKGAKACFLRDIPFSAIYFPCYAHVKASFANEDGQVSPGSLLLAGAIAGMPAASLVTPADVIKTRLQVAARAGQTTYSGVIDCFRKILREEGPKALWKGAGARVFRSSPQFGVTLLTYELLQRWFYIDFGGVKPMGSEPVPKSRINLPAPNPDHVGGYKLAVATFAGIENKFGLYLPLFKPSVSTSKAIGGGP", "UniProt P30939, sequence (whole entry, looked up)": "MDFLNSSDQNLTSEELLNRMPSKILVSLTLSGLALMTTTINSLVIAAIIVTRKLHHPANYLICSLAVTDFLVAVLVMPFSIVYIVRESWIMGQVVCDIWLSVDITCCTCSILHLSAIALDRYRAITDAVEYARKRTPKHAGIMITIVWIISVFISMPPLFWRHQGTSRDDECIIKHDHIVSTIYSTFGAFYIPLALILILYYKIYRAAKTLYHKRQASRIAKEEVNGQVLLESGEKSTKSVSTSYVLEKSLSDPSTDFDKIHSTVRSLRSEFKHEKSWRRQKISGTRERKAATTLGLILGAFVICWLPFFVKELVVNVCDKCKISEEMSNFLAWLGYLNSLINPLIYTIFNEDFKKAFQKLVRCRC", "UniProt P19525, sequence (whole entry, looked up)": "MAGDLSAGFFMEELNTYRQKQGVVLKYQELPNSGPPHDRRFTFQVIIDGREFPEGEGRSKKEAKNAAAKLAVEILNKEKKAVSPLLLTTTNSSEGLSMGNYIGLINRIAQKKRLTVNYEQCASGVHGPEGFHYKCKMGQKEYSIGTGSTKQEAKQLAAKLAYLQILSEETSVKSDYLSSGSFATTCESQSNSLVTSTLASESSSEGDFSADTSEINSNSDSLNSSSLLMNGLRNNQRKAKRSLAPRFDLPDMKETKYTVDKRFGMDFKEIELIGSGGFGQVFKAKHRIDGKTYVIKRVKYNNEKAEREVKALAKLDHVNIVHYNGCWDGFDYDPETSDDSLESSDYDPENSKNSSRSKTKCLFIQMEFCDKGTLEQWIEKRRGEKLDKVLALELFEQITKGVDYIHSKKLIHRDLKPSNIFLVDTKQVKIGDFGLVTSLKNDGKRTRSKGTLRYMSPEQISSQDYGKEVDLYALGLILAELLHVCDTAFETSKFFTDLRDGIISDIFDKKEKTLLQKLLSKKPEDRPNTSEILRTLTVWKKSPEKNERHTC", "UniProt P48039, sequence (whole entry, looked up)": "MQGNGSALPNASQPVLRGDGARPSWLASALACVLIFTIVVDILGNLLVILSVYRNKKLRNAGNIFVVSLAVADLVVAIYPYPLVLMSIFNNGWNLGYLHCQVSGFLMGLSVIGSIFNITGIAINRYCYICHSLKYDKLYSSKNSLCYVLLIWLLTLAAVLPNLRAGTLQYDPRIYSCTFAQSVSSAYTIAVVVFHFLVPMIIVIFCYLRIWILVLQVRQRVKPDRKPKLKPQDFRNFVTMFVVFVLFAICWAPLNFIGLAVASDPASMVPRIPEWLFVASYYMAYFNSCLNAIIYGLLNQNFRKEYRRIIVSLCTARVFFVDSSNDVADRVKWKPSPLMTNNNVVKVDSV", "UniProt Q96LB1, sequence (whole entry, looked up)": "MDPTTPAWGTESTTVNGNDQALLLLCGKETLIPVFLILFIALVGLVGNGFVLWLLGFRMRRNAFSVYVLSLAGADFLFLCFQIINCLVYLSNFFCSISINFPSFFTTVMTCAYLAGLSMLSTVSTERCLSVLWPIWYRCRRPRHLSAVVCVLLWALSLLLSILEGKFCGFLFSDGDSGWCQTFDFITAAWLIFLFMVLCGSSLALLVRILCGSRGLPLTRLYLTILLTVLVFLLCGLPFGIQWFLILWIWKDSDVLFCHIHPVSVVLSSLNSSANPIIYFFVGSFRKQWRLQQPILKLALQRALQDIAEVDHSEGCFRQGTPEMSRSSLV", "UniProt O15146, sequence (whole entry, looked up)": "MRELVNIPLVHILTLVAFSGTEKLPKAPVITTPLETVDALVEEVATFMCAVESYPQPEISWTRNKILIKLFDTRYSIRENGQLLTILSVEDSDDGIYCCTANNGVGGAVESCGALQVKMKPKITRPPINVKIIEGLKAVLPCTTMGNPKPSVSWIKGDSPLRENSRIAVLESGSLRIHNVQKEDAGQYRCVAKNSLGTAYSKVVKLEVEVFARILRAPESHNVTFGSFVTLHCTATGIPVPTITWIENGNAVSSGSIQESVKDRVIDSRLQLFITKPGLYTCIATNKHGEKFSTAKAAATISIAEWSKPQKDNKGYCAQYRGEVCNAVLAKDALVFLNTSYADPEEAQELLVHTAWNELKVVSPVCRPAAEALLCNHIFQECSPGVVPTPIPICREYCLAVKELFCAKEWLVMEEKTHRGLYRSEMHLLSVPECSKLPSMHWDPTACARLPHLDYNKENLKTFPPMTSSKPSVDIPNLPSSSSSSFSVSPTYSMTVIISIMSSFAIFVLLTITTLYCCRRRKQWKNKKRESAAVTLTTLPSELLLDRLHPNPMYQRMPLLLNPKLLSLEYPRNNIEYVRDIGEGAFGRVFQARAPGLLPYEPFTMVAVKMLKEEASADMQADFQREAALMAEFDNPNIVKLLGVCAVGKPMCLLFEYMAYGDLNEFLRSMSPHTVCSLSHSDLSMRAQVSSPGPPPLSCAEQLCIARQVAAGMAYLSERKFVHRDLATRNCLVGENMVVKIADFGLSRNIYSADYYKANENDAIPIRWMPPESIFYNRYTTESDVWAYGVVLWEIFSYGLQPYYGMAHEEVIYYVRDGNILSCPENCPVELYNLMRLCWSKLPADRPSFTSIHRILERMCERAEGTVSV", "UniProt P11229, sequence (whole entry, looked up)": "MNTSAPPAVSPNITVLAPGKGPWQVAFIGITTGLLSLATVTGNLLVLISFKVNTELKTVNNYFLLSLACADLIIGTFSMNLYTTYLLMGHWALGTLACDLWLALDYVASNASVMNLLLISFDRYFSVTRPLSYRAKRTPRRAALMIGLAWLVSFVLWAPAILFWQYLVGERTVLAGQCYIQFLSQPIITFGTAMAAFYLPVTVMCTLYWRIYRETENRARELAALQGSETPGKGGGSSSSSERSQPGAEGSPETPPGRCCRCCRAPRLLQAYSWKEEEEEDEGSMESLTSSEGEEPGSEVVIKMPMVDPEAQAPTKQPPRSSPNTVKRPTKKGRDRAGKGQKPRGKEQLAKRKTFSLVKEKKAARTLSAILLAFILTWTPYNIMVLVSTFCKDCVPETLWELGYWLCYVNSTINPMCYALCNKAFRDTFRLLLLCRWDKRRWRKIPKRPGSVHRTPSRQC"}
{"SMILES": "N#Cc1cncc(Cn2c(=S)[nH]c3cc(CO)c(Cl)cc3c2=O)c1", "target": "4'-phosphopantetheinyl transferase PptT", "assay": "enzyme activity, inhibitor, FP", "quantity": "IC50", "value": "1410 nM"}
{"SMILES": "[2H]c1c([2H])c([C@]2([2H])CCCN2C(=O)C(C)(C)Oc2ccc3cn[nH]c3c2)c([2H])c([2H])c1C([2H])([2H])[2H]", "target": "MAP3K15 (Homo sapiens, UniProt Q6ZN16)", "assay": "binding, competition with immobilised ligand", "conditions": "1 µM", "quantity": "remaining binding", "value": "67%"}
{"SMILES": "CC[C@H]1CN2CCc3c([nH]c4ccccc34)[C@H]2C[C@@H]1/C(=C\\OC)C(=O)OC", "target": "PRDX3 (Homo sapiens, UniProt P30048)", "assay": "binding, SPR", "quantity": "Kd", "value": "1890 nM"}
{"SMILES": "COc1ncccc1-c1cnn2ccc(N3CCN(C(=O)OC(C)C)CC3)nc12", "target": "MUSK (Homo sapiens, UniProt O15146)", "assay": "binding, competition with immobilised ligand", "conditions": "1 µM", "quantity": "remaining binding", "value": "100%"}
{"SMILES": "Cc1cc(=O)oc2cc(OCCCC[Se]C#N)ccc12", "target": "CA9 (Homo sapiens, UniProt Q16790)", "assay": "enzyme activity, inhibitor, stopped-flow", "quantity": "Ki", "value": "34.9 nM"}
{"SMILES": "COc1cc2c(cc1OC)CN(CCc1ccc(NC(=O)c3cccc4c(=O)c5cccc(OC)c5[nH]c34)cc1)CC2", "target": "CHRM1 (Homo sapiens, UniProt P11229)", "assay": "cell-free assay", "quantity": "Ki", "value": "413 nM"}
{"SMILES": "CSCC[C@H](NC(=O)[C@@H]1CCCN1C(=O)[C@H](CCCCN)NC(=O)[C@H](CC(=O)O)NC(=O)[C@H](Cc1c[nH]c2ccccc12)NC(=O)[C@H](CCC(N)=O)NC(=O)[C@@H](N)CCCCN)C(=O)N[C@@H](Cc1ccc(O)cc1)C(=O)N[C@@H](Cc1ccc(O)cc1)C(=O)O", "target": "HLA class I histocompatibility antigen, A alpha chain", "assay": "cell-free assay", "quantity": "IC50", "value": "26 nM"}
{"SMILES": "CC(c1cccnc1)n1c(=S)[nH]c2ccc(Cl)cc2c1=O (stereo not shown)", "target": "4'-phosphopantetheinyl transferase PptT", "assay": "enzyme activity, inhibitor, FP", "quantity": "IC50", "value": "710 nM"}
{"SMILES": "O=C(O)C(F)(F)C(F)(F)C(F)(F)C(F)(F)C(F)(F)C(F)(F)F", "target": "FABP4 (Homo sapiens, UniProt P15090)", "assay": "ligand displacement, fluorescence", "quantity": "Ki", "value": "4460 nM"}
{"SMILES": "CSCC[C@H](NC(=O)[C@H](CO)NC(=O)[C@H](CC(C)C)NC(=O)[C@@H](NC(=O)[C@H](Cc1c[nH]cn1)NC(=O)[C@H](CCCCN)NC(=O)[C@H](Cc1ccccc1)NC(=O)[C@H](CCC(N)=O)NC(=O)[C@@H](N)CCCCN)[C@@H](C)O)C(=O)O", "target": "HLA class I histocompatibility antigen, A alpha chain", "assay": "cell-free assay", "quantity": "IC50", "value": "286 nM"}
{"SMILES": "CSCC[C@H](NC(=O)[C@H](Cc1ccccc1)NC(=O)CNC(=O)CNC(=O)[C@@H](N)Cc1ccc(O)cc1)C(=O)N[C@@H](CCCNC(=N)N)C(=O)N[C@@H](CCCNC(=N)N)C(=O)N[C@H](C(=O)NCC(=O)N[C@@H](CCCNC(=N)N)C(=O)N1CCC[C@H]1C(=O)N[C@@H](CCC(=O)O)C(=O)N[C@@H](Cc1c[nH]c2ccccc12)C(=O)N[C@@H](Cc1c[nH]c2ccccc12)C(=O)N[C@@H](CCSC)C(=O)N[C@@H](CC(=O)O)C(=O)N[C@@H](Cc1ccc(O)cc1)C(=O)N[C@@H](CCC(N)=O)C(=O)N[C@@H](CCCCN)C(=O)N[C@@H](CCCNC(=N)N)C(=O)N[C@@H](Cc1ccc(O)cc1)C(=O)NCC(=O)O)C(C)C", "target": "MRGPRX2 (Homo sapiens, UniProt Q96LB1)", "assay": "calcium signal, agonist", "quantity": "EC50", "value": "7940 nM"}
{"SMILES": "N=C(N)NCCC[C@H]1NC(=O)[C@H](Cc2ccc(O)cc2)NC(=O)[C@H](CCCCN)NC(=O)[C@H](Cc2ccccc2)NC1=O", "target": "Oprm1 (Rattus norvegicus, UniProt P33535)", "assay": "ligand displacement, radioligand", "conditions": "cell membranes", "quantity": "Ki", "value": "1.04 nM and 1 to 2 nM"}
{"SMILES": "CC(C)[C@H](NC(=O)[C@H](Cc1ccccc1)NC(=O)[C@H](CCCNC(=N)N)NC(=O)[C@H](CC(=O)O)NC(=O)[C@H](Cc1ccc(O)cc1)NC(=O)[C@@H](NC(=O)[C@@H](N)CCCCN)C(C)C)C(=O)N[C@@H](Cc1c[nH]cn1)C(=O)N[C@@H](Cc1ccccc1)C(=O)O", "target": "HLA class I histocompatibility antigen, A alpha chain", "assay": "cell-free assay", "quantity": "IC50", "value": "5.9 nM"}
{"SMILES": "COc1ccc2cccc(C(CO)CNC(=O)CF)c2c1 (stereo not shown)", "target": "MTNR1A (Homo sapiens, UniProt P48039)", "assay": "β-arrestin recruitment, agonist", "quantity": "EC50", "value": "2.69 nM"}
{"SMILES": "CSCC[C@H](NC(=O)[C@@H]1CCCN1C(=O)[C@@H](N)C(C)C)C(=O)N[C@@H](CCCNC(=N)N)C(=O)N[C@@H](CC(C)C)C(=O)N[C@@H](CCCNC(=N)N)C(=O)N[C@@H](CCCCN)C(=O)N[C@@H](CC(C)C)C(=O)N1CCC[C@H]1C(=O)N[C@@H](C)C(=O)N[C@@H](CO)C(=O)N[C@@H](Cc1ccccc1)C(=O)N[C@@H](Cc1ccccc1)C(=O)N[C@@H](CCCCN)C(=O)N1CCC[C@H]1C(=O)N1CCC[C@H]1C(=O)N[C@@H](CCC(=O)O)C(=O)O", "target": "TEAD4 (Homo sapiens, UniProt Q15561)", "assay": "binding, SPR", "conditions": "pH 7.4", "quantity": "Kd", "value": "48300 nM"}
{"SMILES": "Cc1nn(C)cc1-c1nc2c(N3CCN(Cc4ccc(Cl)cc4)CC3)c(Cl)cnc2[nH]1", "target": "CHUK (Homo sapiens, UniProt O15111)", "assay": "binding, competition with immobilised ligand", "conditions": "1 µM", "quantity": "remaining binding", "value": "100%"}
{"SMILES": "CC[C@H](NC(=O)OCc1ccccc1)C(=O)N[C@H](C(=O)N[C@@H](Cc1ccccc1)C(=O)N(C)N(C#N)CCC(N)=O)C(C)(C)C", "target": "Cathepsin B (CTSB, Homo sapiens, UniProt P07858)", "assay": "enzyme activity, inhibitor", "quantity": "Ki", "value": "36.3 nM"}
{"SMILES": "COc1cc(N2CC[C@@]3(O)C(=O)c4cc(C)c(C)cc4N=C23)ccn1", "target": "Myosin-7 (MYH7, Bos taurus, UniProt Q9BE39)", "assay": "ATPase activity, inhibitor", "quantity": "Ki", "value": "17000 nM"}
{"SMILES": "CCC(C(=O)Nc1cc(NC2CNC2)ccc1C)n1cccc2nc(SCc3ccc(F)cc3)nc1-2 (stereo not shown)", "target": "Serine protease 1 (PRSS1, Homo sapiens, UniProt P07477)", "assay": "enzyme activity, inhibitor", "quantity": "IC50", "value": "> 100000 nM"}
{"SMILES": "CC[C@H](C)[C@H](NC(=O)[C@H](CCCNC(=N)N)NC(=O)[C@H](CC(=O)O)NC(=O)[C@H](Cc1ccccc1)NC(=O)[C@@H](NC(=O)[C@H](C)N)[C@@H](C)O)C(=O)N[C@@H](Cc1c[nH]cn1)C(=O)N[C@@H](CCC(N)=O)C(=O)N[C@@H](Cc1ccccc1)C(=O)O", "target": "HLA class I histocompatibility antigen, A alpha chain", "assay": "cell-free assay", "quantity": "IC50", "value": "10500 nM"}
{"SMILES": "COC(CNC(=O)c1ccccc1OCC(=O)O)[CH2][Hg][OH] (stereo not shown)", "target": "SLC25A13 (Homo sapiens, UniProt Q9UJS0)", "assay": "binding, ITC", "quantity": "Kd", "value": "< 1000 nM"}
{"SMILES": "CSCC[C@H](NC(=O)[C@@H](N)CCCCN)C(=O)N[C@@H](Cc1ccccc1)C(=O)N[C@@H](CC(=O)O)C(=O)N[C@@H](CCC(=O)O)C(=O)N[C@@H](Cc1ccccc1)C(=O)N[C@@H](Cc1c[nH]cn1)C(=O)N[C@H](C(=O)N[C@@H](Cc1ccc(O)cc1)C(=O)O)C(C)C", "target": "HLA class I histocompatibility antigen, A alpha chain", "assay": "cell-free assay", "quantity": "IC50", "value": "37 nM"}
{"SMILES": "Nc1ncc(-c2nc(N3CCOCC3)nc(N3CCOCC3)n2)c(C(F)F)n1", "target": "EIF2AK2 (Homo sapiens, UniProt P19525)", "assay": "binding, competition with immobilised ligand", "conditions": "10 µM", "quantity": "remaining binding", "value": "91%"}
{"SMILES": "CSCC[C@H](NC(=O)[C@H](Cc1c[nH]cn1)NC(=O)[C@H](CC(=O)O)NC(=O)[C@H](Cc1ccc(O)cc1)NC(=O)[C@H](CCC(N)=O)NC(=O)[C@@H](N)CCCCN)C(=O)N[C@@H](Cc1ccc(O)cc1)C(=O)N[C@@H](CCC(N)=O)C(=O)N[C@@H](CC(C)C)C(=O)O", "target": "HLA class I histocompatibility antigen, A alpha chain", "assay": "cell-free assay", "quantity": "IC50", "value": "990 nM"}
{"SMILES": "c1ccc2nc(N3CCNCC3)ccc2c1", "target": "HTR1F (Homo sapiens, UniProt P30939)", "assay": "G protein activation, agonist, BRET", "quantity": "EC50", "value": "3160 nM"}
